# Measurements from different studies.
# Lines come from different studies, so protocols differ.
# T1: xseA/xseB 1-456;1-80 H238A (Escherichia coli); chain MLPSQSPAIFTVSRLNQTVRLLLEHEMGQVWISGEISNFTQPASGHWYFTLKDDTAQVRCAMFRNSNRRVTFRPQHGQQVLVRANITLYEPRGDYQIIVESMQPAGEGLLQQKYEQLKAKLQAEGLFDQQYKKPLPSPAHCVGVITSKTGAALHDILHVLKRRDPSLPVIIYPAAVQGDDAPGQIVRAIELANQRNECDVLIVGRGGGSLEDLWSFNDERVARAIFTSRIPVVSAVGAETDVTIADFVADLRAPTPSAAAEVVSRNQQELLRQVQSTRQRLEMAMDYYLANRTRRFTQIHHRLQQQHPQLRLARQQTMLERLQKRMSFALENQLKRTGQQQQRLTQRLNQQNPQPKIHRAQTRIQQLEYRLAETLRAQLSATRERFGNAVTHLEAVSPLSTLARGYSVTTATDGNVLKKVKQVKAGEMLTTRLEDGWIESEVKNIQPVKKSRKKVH; chain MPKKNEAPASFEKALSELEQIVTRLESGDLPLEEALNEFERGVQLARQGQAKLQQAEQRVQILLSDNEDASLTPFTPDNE
# B1: rCR (Lodderomyces parapsilosis, UniProt A1X808); chain MSIPSSQYGFVFNKQSGLKLRNDLPVHKPKAGQLLLKVDAVGLCHSDLHVIYEGLDCGDNYVMGHEIAGTVAAVGDDVINYKVGDRVACVGPNGCGGCKYCRGAIDNVCKNAFGDWFGLGYDGGYQQYLLVTRPRNLSRIPDNVSADVAAASTDAVLTPYHAIKMAQVSPTSNILLIGAGGLGGNAIQVAKAFGAKVTVLDKKKEARDQAKKLGADAVYETLPESISPGSFSACFDFVSVQATFDVCQKYVEPKGVIMPVGLGAPNLSFNLGDLALREIRILGSFWGTTNDLDDVLKLVSEGKVKPVVRSAKLKELPEYIEKLRNNAYEGRVVFNP
# B2: UGT76G1 (Stevia rebaudiana, UniProt Q6VAB4); chain MENKTETTVRRRRRIILFPVPFQGHINPILQLANVLYSKGFSITIFHTNFNKPKTSNYPHFTFRFILDNDPQDERISNLPTHGPLAGMRIPIINEHGADELRRELELLMLASEEDEEVSCLITDALWYFAQSVADSLNLRRLVLMTSSLFNFHAHVSLPQFDELGYLDPDDKTRLEEQASGFPMLKVKDIKSAYSNWQILKEILGKMIKQTKASSGVIWNSFKELEESELETVIREIPAPSFLIPLPKHLTASSSSLLDHDRTVFQWLDQQPPSSVLYVSFGSTSEVDEKDFLEIARGLVDSKQSFLWVVRPGFVKGSTWVEPLPDGFLGERGRIVKWVPQQEVLAHGAIGAFWTHSGWNSTLESVCEGVPMIFSDFGLDQPLNARYMSDVLKVGVYLENGWERGEIANAIRRVMVDEEGEYIRQNARVLKQKADVSLMKGGSSYESLESLVSYISSL
# B3: SIRT5 W222A (Homo sapiens, UniProt Q9NXA8); chain ARPSSSMADFRKFFAKAKHIVIISGAGVSAESGVPTFRGAGGYWRKWQAQDLATPLAFAHNPSRVWEFYHYRREVMGSKEPNAGHRAIAECETRLGKQGRRVVVITQNIDELHRKAGTKNLLEIHGSLFKTRCTSCGVVAENYKSPICPALSGKGAPEPGTQDASIPVEKLPRCEEAGCGGLLRPHVVAFGENLDPAILEEVDRELAHCDLCLVVGTSSVVYPAAMFAPQVAARGVPVAEFNTETTPATNRFRFHFQGPCGTTLPEALA
# B4: ABCC3 (Homo sapiens, UniProt O15438); chain MDALCGSGELGSKFWDSNLSVHTENPDLTPCFQNSLLAWVPCIYLWVALPCYLLYLRHHCRGYIILSHLSKLKMVLGVLLWCVSWADLFYSFHGLVHGRAPAPVFFVTPLVVGVTMLLATLLIQYERLQGVQSSGVLIIFWFLCVVCAIVPFRSKILLAKAEGEISDPFRFTTFYIHFALVLSALILACFREKPPFFSAKNVDPNPYPETSAGFLSRLFFWWFTKMAIYGYRHPLEEKDLWSLKEEDRSQMVVQQLLEAWRKQEKQTARHKASAAPGKNASGEDEVLLGARPRPRKPSFLKALLATFGSSFLISACFKLIQDLLSFINPQLLSILIRFISNPMAPSWWGFLVAGLMFLCSMMQSLILQHYYHYIFVTGVKFRTGIMGVIYRKALVITNSVKRASTVGEIVNLMSVDAQRFMDLAPFLNLLWSAPLQIILAIYFLWQNLGPSVLAGVAFMVLLIPLNGAVAVKMRAFQVKQMKLKDSRIKLMSEILNGIKVLKLYAWEPSFLKQVEGIRQGELQLLRTAAYLHTTTTFTWMCSPFLVTLITLWVYVYVDPNNVLDAEKAFVSVSLFNILRLPLNMLPQLISNLTQASVSLKRIQQFLSQEELDPQSVERKTISPGYAITIHSGTFTWAQDLPPTLHSLDIQVPKGALVAVVGPVGCGKSSLVSALLGEMEKLEGKVHMKGSVAYVPQQAWIQNCTLQENVLFGKALNPKRYQQTLEACALLADLEMLPGGDQTEIGEKGINLSGGQRQRVSLARAVYSDADIFLLDDPLSAVDSHVAKHIFDHVIGPEGVLAGKTRVLVTHGISFLPQTDFIIVLADGQVSEMGPYPALLQRNGSFANFLCNYAPDEDQGHLEDSWTALEGAEDKEALLIEDTLSNHTDLTDNDPVTYVVQKQFMRQLSALSSDGEGQGRPVPRRHLGPSEKVQVTEAKADGALTQEEKAAIGTVELSVFWDYAKAVGLCTTLAICLLYVGQSAAAIGANVWLSAWTNDAMADSRQNNTSLRLGVYAALGILQGFLVMLAAMAMAAGGIQAARVLHQALLHNKIRSPQSFFDTTPSGRILNCFSKDIYVVDEVLAPVILMLLNSFFNAISTLVVIMASTPLFTVVILPLAVLYTLVQRFYAATSRQLKRLESVSRSPIYSHFSETVTGASVIRAYNRSRDFEIISDTKVDANQRSCYPYIISNRWLSIGVEFVGNCVVLFAALFAVIGRSSLNPGLVGLSVSYSLQVTFALNWMIRMMSDLESNIVAVERVKEYSKTETEAPWVVEGSRPPEGWPPRGEVEFRNYSVRYRPGLDLVLRDLSLHVHGGEKVGIVGRTGAGKSSMTLCLFRILEAAKGEIRIDGLNVADIGLHDLRSQLTIIPQDPILFSGTLRMNLDPFGSYSEEDIWWALELSHLHTFVSSQPAGLDFQCSEGGENLSVGQRQLVCLARALLRKSRILVLDEATAAIDLETDNLIQATIRTQFDTCTVLTIAHRLNTIMDYTRVLVLDKGVVAEFDSPANLIAARGIFYGMARDAGLA
# B5: PTPN2 (Homo sapiens, UniProt P17706); chain MPTTIEREFEELDTQRRWQPLYLEIRNESHDYPHRVAKFPENRNRNRYRDVSPYDHSRVKLQNAENDYINASLVDIEEAQRSYILTQGPLPNTCCHFWLMVWQQKTKAVVMLNRIVEKESVKCAQYWPTDDQEMLFKETGFSVKLLSEDVKSYYTVHLLQLENINSGETRTISHFHYTTWPDFGVPESPASFLNFLFKVRESGSLNPDHGPAVIHCSAGIGRSGTFSLVDTCLVLMEKGDDINIKQVLLNMRKYRMGLIQTPDQLRFSYMAIIEGAKCIKGDSSIQKRWKELSKEDLSPAFDHSPNKIMTEKYNGNRIGLEEEKLTGDRCTGLSSKMQDTMEENSESALRKRIREDRKATTAQKVQQMKQRLNENERKRKRWLYWQPILTKMGFMSVILVGAFVGWTLFFQQNAL
# B6: bioZ (Agrobacterium fabrum, UniProt Q7CTU0); chain MQTRSSRMAGFGHAVPARCVDNAEIEASLGLEAGWIERRTGIRSRYWAEAGDTLSGLAERAGRMALEDAKINADDIALTLLATSTPDHLLPPSAPLLAHRLGLTRSGAIDLAGACSGFLYALTLADGFVRTYGRAVLVVAANILSRRINPAERASAVLFADAAGAVVLTPCPEVKRGVLSADLVADGSGYDLIQIAAGGSSQPFSAGMIAEDALMTMRDGREVFSRAVALMTNTSQRVLHEAELTAADISRFVPHQANARMSDAVCGNLGIEREKTVRTIGSFGNSSAATIPLSLSITNAERPLAGGETLLLTAAGAGMTGGAVVYRV
# B7: SLCO1B1 (Homo sapiens, UniProt Q9Y6L6); chain MDQNQHLNKTAEAQPSENKKTRYCNGLKMFLAALSLSFIAKTLGAIIMKSSIIHIERRFEISSSLVGFIDGSFEIGNLLVIVFVSYFGSKLHRPKLIGIGCFIMGIGGVLTALPHFFMGYYRYSKETNINSSENSTSTLSTCLINQILSLNRASPEIVGKGCLKESGSYMWIYVFMGNMLRGIGETPIVPLGLSYIDDFAKEGHSSLYLGILNAIAMIGPIIGFTLGSLFSKMYVDIGYVDLSTIRITPTDSRWVGAWWLNFLVSGLFSIISSIPFFFLPQTPNKPQKERKASLSLHVLETNDEKDQTANLTNQGKNITKNVTGFFQSFKSILTNPLYVMFVLLTLLQVSSYIGAFTYVFKYVEQQYGQPSSKANILLGVITIPIFASGMFLGGYIIKKFKLNTVGIAKFSCFTAVMSLSFYLLYFFILCENKSVAGLTMTYDGNNPVTSHRDVPLSYCNSDCNCDESQWEPVCGNNGITYISPCLAGCKSSSGNKKPIVFYNCSCLEVTGLQNRNYSAHLGECPRDDACTRKFYFFVAIQVLNLFFSALGGTSHVMLIVKIVQPELKSLALGFHSMVIRALGGILAPIYFGALIDTTCIKWSTNNCGTRGSCRTYNSTSFSRVYLGLSSMLRVSSLVLYIILIYAMKKKYQEKDINASENGSVMDEANLESLNKNKHFVPSAGADSETHC
# Sequence of UniProt O94956 (whole entry, looked up): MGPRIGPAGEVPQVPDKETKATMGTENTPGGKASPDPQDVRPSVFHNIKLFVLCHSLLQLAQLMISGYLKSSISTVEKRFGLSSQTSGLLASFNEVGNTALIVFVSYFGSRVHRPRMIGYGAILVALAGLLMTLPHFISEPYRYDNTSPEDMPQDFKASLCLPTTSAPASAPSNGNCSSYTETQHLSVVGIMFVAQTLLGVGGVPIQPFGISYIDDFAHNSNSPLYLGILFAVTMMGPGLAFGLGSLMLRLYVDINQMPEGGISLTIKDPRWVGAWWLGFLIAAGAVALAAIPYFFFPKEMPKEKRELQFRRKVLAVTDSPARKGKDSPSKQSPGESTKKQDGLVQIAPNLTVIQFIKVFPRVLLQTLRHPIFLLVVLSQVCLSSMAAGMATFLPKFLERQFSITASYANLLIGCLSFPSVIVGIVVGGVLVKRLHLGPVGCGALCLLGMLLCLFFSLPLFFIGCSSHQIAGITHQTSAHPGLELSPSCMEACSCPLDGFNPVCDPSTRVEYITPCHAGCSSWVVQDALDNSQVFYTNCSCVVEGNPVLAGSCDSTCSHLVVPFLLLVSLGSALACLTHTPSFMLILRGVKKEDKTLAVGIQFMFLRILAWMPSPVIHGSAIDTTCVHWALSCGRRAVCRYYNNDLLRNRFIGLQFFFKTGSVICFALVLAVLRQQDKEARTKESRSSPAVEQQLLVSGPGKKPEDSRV
# Sequence of UniProt Q9LFJ8 (whole entry, looked up): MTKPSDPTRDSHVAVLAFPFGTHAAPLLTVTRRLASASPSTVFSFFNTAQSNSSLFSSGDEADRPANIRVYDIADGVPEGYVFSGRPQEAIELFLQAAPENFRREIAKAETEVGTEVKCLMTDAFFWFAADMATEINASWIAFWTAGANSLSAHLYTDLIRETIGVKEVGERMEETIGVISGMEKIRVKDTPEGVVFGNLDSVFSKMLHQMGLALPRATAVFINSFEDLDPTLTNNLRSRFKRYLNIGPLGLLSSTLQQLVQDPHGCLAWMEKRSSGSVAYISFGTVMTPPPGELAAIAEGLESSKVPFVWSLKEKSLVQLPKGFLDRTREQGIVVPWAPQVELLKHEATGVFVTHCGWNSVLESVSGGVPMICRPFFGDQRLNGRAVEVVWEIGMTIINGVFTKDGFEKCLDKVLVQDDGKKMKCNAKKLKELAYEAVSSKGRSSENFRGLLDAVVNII
# Sequence of UniProt P22310 (whole entry, looked up): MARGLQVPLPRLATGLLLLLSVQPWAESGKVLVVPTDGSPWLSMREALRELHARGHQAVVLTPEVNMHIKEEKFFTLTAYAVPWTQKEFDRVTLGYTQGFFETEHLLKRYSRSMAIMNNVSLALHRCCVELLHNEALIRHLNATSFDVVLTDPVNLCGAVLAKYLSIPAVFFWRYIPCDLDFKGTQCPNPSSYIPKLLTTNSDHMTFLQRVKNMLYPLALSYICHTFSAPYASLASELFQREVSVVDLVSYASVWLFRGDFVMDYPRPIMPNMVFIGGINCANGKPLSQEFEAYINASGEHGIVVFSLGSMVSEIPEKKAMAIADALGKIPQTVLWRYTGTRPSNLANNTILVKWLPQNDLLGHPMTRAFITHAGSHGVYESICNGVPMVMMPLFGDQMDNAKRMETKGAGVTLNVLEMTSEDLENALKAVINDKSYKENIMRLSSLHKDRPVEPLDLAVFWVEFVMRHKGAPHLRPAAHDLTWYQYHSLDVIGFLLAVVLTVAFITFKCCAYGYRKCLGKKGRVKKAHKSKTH
# Sequence of UniProt Q92851 (whole entry, looked up): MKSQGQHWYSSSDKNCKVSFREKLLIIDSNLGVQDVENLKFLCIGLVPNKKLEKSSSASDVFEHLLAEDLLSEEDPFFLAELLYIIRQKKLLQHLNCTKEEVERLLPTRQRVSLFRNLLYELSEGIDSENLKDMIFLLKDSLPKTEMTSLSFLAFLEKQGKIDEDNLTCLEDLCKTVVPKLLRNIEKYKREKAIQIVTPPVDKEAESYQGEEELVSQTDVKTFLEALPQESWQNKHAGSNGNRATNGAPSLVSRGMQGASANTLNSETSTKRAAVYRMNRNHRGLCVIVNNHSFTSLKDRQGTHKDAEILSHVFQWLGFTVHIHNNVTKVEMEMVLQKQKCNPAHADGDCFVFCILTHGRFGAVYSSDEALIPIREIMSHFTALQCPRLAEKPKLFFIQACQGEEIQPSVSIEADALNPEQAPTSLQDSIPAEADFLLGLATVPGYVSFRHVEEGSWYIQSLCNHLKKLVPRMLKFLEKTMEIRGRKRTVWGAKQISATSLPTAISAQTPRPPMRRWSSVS
Molecule,target or system,assay,test system,conditions,quantity,result
B1 (rCR),COC(=O)CC(C)=O,steady-state kinetics,,"pH 7, 30 °C, together with: NADH 0.5 mM",Km,280 µM
"CASP10 (Homo sapiens, UniProt Q92851)",CC[C@H](C)[C@H](NC(C)=O)C(=O)N[C@@H](CCC(=O)O)C(=O)N1CCC[C@H]1C(=O)N[C@@H](CC(=O)O)C(=O)Nc1ccc2c(C)cc(=O)oc2c1,steady-state kinetics,,37 °C,Km,22.7 µM
B2 (UGT76G1),C=C1C[C@@]23CC[C@H]4[C@@](C)(CCC[C@@]4(C)C(=O)O[C@@H]4O[C@H](CO)[C@@H](O)[C@H](O)[C@H]4O[C@@H]4O[C@H](CO)[C@@H](O)[C@H](O)[C@H]4O)[C@@H]2CC[C@]1(O[C@@H]1O[C@H](CO)[C@@H](O)[C@H](O)[C@H]1O[C@@H]1O[C@H](CO)[C@@H](O)[C@H](O)[C@H]1O)C3,steady-state kinetics,,"pH 7.25, 40 °C",Km,35.6 µM
B3 (SIRT5 W222A),CSCC[C@H](NC(=O)[C@H](CC(C)C)NC(=O)[C@H](CCCCNC(C)=O)NC(=O)[C@H](CCCCN)NC(=O)[C@H](Cc1c[nH]cn1)NC(=O)[C@H](CCCNC(=N)N)NC(=O)[C@H](CO)NC(=O)[C@@H](NC(=O)[C@H](CO)NC(=O)[C@H](CCC(N)=O)NC(=O)CNC(=O)[C@H](CCCCN)NC(=O)[C@@H](N)CCCCN)[C@@H](C)O)C(=O)N[C@@H](Cc1ccccc1)C(=O)N[C@@H](CCCCN)C(=O)N[C@H](C(=O)N[C@@H](CCC(=O)O)C(=O)NCC(=O)O)[C@@H](C)O,steady-state kinetics,,"pH 7.5, 37 °C, together with: saturating NAD+",Km,774 µM
B4 (ABCC3),O=C(c1ccc(OCCN2CCCCC2)cc1)c1c(-c2ccc(O)cc2)sc2cc(O[C@@H]3O[C@H](C(=O)O)[C@@H](O)[C@H](O)[C@H]3O)ccc12,steady-state kinetics,Sf9 vesicles,"pH 7, 37 °C, not purified, together with: ATP",Km,3.92 µM
B5 (PTPN2),CC(C)[C@H](NC(=O)[C@H](CCC(=O)O)NC(=O)[C@H](CCC(=O)O)NC(=O)[C@@H]1Cc2ccc(O)cc2CN1C(=O)[C@H](CCC(=O)O)NC(=O)[C@H](CC(=O)O)NC(=O)[C@H](CC(=O)O)NC(=O)[C@H](CCC(=O)O)NC(=O)c1ccc2c(c1)C1(OC2=O)c2ccc(O)cc2Oc2cc(O)ccc21)C(N)=O,steady-state kinetics,,pH 9.5,Km,12.2 µM
B6 (bioZ),CC(C)(COP(=O)(O)OP(=O)(O)OC[C@H]1O[C@@H](n2cnc3c(N)ncnc32)[C@H](O)[C@@H]1OP(=O)(O)O)[C@@H](O)C(=O)NCCC(=O)NCCSC(=O)CCCC(=O)O,steady-state kinetics,,,Km,41.1 µM
B7 (SLCO1B1),O=C(c1ccc(OCCN2CCCCC2)cc1)c1c(-c2ccc(O)cc2)sc2cc(O[C@@H]3O[C@H](C(=O)O)[C@@H](O)[C@H](O)[C@H]3O)ccc12,steady-state kinetics,HEK293 cells,"pH 7.4, 37 °C",Km,48.8 µM
"enzyme (Arabidopsis thaliana, UniProt Q9LFJ8)",Oc1cc(O)c2cc(O)c(-c3ccc(O)c(O)c3)[o+]c2c1,steady-state kinetics,,"pH 7.5, 30 °C",Km,730 µM
DNA 1 GGATGGGACGTGGGCAGTAAGATGGACAGAAGACAGGTAGAATGACGGGTGCAGGGTAAA / DNA 2 TTTACCCTGCACCCGTCATTCTACCTGTCTTCTGTCCATCTTACTGCCCACGTCC (dsDNA; 5' overhang),"T1, xseA/xseB 1-456;1-80 H238A (Escherichia coli)",mass photometry,double-stranded DNA,,binding,binds
CGTGGGCTCAAGTTGCCTTTCCTTTGGGTT (dsDNA),"WRKY7 1-348 (Brassica napus, UniProt C5H9Z7)",EMSA,"double-stranded DNA, one strand shown",,binding,binds
"SLCO2B1 (Homo sapiens, UniProt O94956)",O=C(c1ccc(OCCN2CCCCC2)cc1)c1c(-c2ccc(O[C@@H]3O[C@H](C(=O)O)[C@@H](O)[C@H](O)[C@H]3O)cc2)sc2cc(O)ccc12,steady-state kinetics,HEK293 cells,"pH 7.4, 37 °C",Km,20.2 µM
"UGT1A4 (Homo sapiens, UniProt P22310)",CCCCN1C(=O)c2cccc3c(N4CCN(C)CC4)ccc(c23)C1=O,steady-state kinetics,,,Km,15.1 µM
"enzyme (Cannabis sativa, UniProt A0ABL6VS23)",O=c1ccn([C@@H]2O[C@H](CO[P@@](=O)(O)O[P@@](=O)(O)O[C@H]3O[C@H](CO)[C@@H](O)[C@H](O)[C@H]3O)[C@@H](O)[C@H]2O)c(=O)[nH]1,steady-state kinetics,,30 °C,Km,17.4 µM

# Some of these lines once more:
Molecule,target or system,assay,test system,conditions,quantity,result
B4 (ABCC3),O=C(c1ccc(OCCN2CCCCC2)cc1)c1c(-c2ccc(O)cc2)sc2cc(O[C@@H]3O[C@H](C(=O)O)[C@@H](O)[C@H](O)[C@H]3O)ccc12,steady-state kinetics,Sf9 vesicles,"pH 7, 37 °C, not purified, together with: ATP",Km,3.92 µM
